Experimental data of several laboratories.
Each numbered part is a random draw from the data of one study; scales do not carry over between parts.
Sequence of UniProt Q9H4B4 (whole entry, looked up): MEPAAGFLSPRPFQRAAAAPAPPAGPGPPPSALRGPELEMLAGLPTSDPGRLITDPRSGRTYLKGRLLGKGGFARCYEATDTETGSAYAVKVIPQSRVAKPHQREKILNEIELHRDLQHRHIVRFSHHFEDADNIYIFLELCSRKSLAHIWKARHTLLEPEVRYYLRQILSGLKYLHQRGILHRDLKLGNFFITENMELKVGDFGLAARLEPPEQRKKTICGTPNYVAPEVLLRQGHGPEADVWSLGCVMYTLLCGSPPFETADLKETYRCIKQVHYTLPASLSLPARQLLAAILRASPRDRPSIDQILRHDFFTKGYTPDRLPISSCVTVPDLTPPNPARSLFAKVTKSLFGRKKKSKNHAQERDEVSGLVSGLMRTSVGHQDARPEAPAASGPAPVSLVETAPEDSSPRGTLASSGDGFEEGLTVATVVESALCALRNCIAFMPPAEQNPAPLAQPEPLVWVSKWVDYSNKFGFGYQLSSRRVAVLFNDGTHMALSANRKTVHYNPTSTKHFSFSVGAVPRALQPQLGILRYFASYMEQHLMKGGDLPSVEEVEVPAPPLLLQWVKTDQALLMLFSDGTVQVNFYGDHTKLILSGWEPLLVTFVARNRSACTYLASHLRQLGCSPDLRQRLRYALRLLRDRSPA
Sequence of UniProt Q92772 (whole entry, looked up): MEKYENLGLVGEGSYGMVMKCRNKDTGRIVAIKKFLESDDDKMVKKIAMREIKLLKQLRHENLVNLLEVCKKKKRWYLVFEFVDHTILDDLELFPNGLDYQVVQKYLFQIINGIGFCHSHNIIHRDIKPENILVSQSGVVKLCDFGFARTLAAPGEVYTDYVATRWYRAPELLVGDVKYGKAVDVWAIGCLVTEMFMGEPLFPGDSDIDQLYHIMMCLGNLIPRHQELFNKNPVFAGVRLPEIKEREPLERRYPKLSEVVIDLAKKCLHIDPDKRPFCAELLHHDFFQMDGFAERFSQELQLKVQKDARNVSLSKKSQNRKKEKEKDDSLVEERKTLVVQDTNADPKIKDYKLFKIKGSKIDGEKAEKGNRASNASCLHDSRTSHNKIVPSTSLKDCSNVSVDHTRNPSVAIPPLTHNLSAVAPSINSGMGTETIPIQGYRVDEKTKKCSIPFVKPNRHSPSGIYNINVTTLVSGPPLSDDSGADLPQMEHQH
Sequence of UniProt Q16832 (whole entry, looked up): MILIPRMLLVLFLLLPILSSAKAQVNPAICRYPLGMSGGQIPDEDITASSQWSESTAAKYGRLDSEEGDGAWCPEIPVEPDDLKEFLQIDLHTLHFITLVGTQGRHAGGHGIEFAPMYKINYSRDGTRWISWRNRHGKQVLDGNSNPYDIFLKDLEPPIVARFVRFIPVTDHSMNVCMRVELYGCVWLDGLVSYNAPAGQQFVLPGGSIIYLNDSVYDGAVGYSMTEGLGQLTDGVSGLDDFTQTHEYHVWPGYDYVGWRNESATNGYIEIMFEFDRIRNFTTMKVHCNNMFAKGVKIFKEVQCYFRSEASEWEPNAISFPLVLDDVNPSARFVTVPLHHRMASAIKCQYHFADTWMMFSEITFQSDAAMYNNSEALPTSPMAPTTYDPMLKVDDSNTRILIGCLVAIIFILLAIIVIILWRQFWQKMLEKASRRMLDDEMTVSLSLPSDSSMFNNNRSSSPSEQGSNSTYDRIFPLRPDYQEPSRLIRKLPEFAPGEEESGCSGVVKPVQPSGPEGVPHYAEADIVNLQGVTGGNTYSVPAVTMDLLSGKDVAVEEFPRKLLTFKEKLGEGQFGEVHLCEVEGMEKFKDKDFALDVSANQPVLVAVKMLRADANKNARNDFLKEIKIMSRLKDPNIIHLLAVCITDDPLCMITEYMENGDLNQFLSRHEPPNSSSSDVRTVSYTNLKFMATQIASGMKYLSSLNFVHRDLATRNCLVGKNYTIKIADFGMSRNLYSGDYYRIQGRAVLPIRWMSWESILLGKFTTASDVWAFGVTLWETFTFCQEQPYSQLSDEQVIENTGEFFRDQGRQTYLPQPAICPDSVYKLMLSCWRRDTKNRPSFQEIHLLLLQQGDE
Sequence of UniProt Q9Y243 (whole entry, looked up): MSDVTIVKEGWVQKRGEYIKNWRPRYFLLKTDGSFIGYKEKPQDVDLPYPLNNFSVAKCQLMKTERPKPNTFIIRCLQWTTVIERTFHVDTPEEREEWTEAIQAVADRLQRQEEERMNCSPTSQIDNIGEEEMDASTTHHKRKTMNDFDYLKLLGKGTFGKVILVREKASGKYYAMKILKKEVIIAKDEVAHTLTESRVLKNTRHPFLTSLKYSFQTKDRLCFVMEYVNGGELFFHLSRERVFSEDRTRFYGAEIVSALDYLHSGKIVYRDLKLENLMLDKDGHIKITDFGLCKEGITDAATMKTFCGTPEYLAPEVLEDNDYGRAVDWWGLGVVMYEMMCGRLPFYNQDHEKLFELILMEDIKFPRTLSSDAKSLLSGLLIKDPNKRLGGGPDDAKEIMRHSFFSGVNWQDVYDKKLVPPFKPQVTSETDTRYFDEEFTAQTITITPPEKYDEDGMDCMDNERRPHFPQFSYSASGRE
Sequence of UniProt O15111 (whole entry, looked up): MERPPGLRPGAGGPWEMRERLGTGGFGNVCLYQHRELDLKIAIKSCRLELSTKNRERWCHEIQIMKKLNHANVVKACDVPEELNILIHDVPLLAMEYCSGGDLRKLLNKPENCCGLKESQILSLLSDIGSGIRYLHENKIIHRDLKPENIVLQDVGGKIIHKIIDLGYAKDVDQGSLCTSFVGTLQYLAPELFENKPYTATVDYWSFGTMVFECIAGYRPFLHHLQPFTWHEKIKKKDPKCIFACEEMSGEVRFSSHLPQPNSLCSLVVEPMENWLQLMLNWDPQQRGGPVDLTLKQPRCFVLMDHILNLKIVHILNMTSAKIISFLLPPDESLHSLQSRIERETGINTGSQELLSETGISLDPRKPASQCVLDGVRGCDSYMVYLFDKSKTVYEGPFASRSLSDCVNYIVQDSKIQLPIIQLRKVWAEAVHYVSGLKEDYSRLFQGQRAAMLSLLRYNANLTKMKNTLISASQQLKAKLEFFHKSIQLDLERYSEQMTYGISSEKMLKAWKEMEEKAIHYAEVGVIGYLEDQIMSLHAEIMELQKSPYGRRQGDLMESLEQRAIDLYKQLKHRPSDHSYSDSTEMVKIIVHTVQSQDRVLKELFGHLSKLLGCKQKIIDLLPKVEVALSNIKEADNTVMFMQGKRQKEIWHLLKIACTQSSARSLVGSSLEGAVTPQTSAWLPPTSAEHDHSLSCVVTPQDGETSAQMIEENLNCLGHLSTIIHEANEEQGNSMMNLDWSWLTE
Sequence of UniProt Q6P2M8 (whole entry, looked up): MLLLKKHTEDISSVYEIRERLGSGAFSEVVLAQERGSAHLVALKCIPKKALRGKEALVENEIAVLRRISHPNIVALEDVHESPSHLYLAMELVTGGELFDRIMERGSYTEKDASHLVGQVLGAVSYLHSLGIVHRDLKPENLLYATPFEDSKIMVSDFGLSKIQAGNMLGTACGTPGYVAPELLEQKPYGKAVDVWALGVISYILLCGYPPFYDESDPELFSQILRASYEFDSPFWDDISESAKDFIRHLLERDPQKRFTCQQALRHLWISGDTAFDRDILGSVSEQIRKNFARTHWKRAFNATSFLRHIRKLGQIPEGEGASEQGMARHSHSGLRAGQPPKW
Sequence of UniProt P53350 (whole entry, looked up): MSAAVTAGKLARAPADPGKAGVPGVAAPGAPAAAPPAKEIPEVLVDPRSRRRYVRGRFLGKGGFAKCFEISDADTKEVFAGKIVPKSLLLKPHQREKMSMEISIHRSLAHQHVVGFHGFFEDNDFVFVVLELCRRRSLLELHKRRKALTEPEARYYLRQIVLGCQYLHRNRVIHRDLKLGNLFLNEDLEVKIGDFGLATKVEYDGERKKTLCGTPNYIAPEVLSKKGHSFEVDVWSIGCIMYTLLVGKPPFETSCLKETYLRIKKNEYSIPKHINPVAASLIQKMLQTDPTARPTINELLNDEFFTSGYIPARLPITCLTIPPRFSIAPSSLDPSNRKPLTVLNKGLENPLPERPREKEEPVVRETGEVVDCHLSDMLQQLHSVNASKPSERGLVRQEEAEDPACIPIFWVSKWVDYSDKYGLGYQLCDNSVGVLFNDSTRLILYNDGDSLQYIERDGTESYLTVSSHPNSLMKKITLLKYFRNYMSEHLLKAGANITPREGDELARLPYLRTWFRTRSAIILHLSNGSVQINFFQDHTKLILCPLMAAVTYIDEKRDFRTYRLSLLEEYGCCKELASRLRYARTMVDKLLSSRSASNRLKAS
Sequence of UniProt Q9P289 (whole entry, looked up): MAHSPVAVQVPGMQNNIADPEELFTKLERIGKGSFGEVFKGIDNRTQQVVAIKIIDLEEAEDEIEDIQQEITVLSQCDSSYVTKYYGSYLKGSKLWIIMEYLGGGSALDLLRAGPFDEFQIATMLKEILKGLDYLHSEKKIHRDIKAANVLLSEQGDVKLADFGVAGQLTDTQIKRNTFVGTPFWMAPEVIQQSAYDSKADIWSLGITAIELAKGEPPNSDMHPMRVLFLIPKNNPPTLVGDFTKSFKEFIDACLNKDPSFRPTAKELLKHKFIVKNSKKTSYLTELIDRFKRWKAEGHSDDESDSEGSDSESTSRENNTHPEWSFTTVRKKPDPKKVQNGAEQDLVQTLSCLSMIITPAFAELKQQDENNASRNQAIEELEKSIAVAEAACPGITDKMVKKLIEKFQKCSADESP

Study 1 — observed: cell-free assay; technique: competition with immobilised ligand; tested at: 1 µM
Compound: CCCCN(CCCC)C(=O)CN1C[C@H](c2cc(OC)c3c(c2)OCO3)[C@@H](C(=O)O)[C@@H]1CC(C)(C)CCC
target	remaining binding [%]
RPS6KB1 (Homo sapiens, UniProt P23443)	92.8
CDKL2 (Homo sapiens, UniProt Q92772)	100
Ribosomal protein S6 kinase alpha-6, N-terminal kinase domain (RPS6KA6, Homo sapiens, UniProt Q9UK32)	76.4
Non-receptor tyrosine-protein kinase TYK2, JH1 (TYK2, Homo sapiens, UniProt P29597)	100
Ribosomal protein S6 kinase alpha-3, N-terminal kinase domain (RPS6KA3, Homo sapiens, UniProt P51812)	100
STK26 (Homo sapiens, UniProt Q9P289)	72.9
EGFR (Homo sapiens, UniProt P00533, del746-750)	100
CDK7 (Homo sapiens, UniProt P50613)	100
CHUK (Homo sapiens, UniProt O15111)	56.2
ULK3 (Homo sapiens, UniProt Q6PHR2)	86.7
FLT3 (Homo sapiens, UniProt P36888, D835V)	57.4
PLK1 (Homo sapiens, UniProt P53350)	73.5
SNRK (Homo sapiens, UniProt Q9NRH2)	100
EGFR (Homo sapiens, UniProt P00533, A750P/del747-749)	94.3
EGFR (Homo sapiens, UniProt P00533, L861Q)	76.4
AKT3 (Homo sapiens, UniProt Q9Y243)	100
Tyrosine-protein kinase ABL1, phosphorylated (ABL1, Homo sapiens, UniProt P00519, H396P)	96.1

Study 2 — observed: enzyme activity; mode: inhibitor; tested at: 0.5 µM; baseline: control
SMILES: CN([C@@H](Cc1ccc(OS(=O)(=O)c2cccc3cnccc23)cc1)C(=O)N1CCN(c2ccccc2)CC1)S(=O)(=O)c1cccc2cnccc12
target	remaining activity [%]
TLK2 (Homo sapiens, UniProt Q86UE8)	100
MAPK11 (Homo sapiens, UniProt Q15759)	98.9
Cyclin-dependent kinase 9, with cyclin K (CDK9, Homo sapiens, UniProt P50750)	89.4
DDR2 (Homo sapiens, UniProt Q16832)	96.9
MARK4 (Homo sapiens, UniProt Q96L34)	98.8
TXK (Homo sapiens, UniProt P42681)	94.3
KDR (Homo sapiens, UniProt P35968)	100
MAPK14 (Homo sapiens, UniProt Q16539)	91
RPS6KA4 (Homo sapiens, UniProt O75676)	98.7
ROCK1 (Homo sapiens, UniProt Q13464)	97.9
PNCK (Homo sapiens, UniProt Q6P2M8)	99.7
PLK3 (Homo sapiens, UniProt Q9H4B4)	99.3
MARK2 (Homo sapiens, UniProt Q7KZI7)	103

Study 3 — technique: protein-binding microarray; form: double-stranded DNA, one strand shown; matrix: in vitro; tested at: 0.8 µM; notes: whole 60-bp probe, no competitor; direction: higher = stronger binding; all sequences stand within: … GTCTTGATTCGCTTGACGCTGCTG
Target: Centromere-binding protein 1, full length, N-terminal tag (CBF1, Saccharomyces cerevisiae, UniProt P17106, residues 1-351)
Sequence of UniProt P17106 (whole entry, looked up): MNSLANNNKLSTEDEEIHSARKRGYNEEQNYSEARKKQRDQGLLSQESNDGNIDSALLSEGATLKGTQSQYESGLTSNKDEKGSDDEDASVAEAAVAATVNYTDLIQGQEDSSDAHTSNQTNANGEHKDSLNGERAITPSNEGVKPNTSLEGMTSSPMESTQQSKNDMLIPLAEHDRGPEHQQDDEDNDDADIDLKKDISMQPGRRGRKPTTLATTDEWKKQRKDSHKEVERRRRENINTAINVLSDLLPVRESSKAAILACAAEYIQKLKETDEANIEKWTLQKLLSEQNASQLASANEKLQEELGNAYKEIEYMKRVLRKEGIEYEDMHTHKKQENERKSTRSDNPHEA
Strand	fluorescence intensity
CTAAGGATCGTCCGTGACATGAGTGTTTTTTTTTTC	599 a.u.
GAAAAAATAATTTTTGGTGTCACTTCCATCGTATAG	512 a.u.
GAACTTGCATTGGCAGGTGAGAAATGAATACTATAG	527 a.u.
CTAAATGAGTGGAAGCGCGTGGAAGCCCGTCTATTC	506 a.u.
CCTAACTACTATAACCACACCTGATAGCTTCGTACA	609 a.u.
GAAAGTATAATAAGTAGGATGGTAATCACATGATAG	2760 a.u.
CCTAACTACTATAGGCATGTGGTATAGCTTCGTACA	673 a.u.
TGTACGAAGCTATGCCACGAAATTATAGTAGTTAGG	549 a.u.

Other studies, line by line
Molecule	target	test	test system	setting	scale	quantity	result
PhoQ, residues 284 288 289 292 302 303 TAVSDG	PhoP, residues 12 14 15 18 19 TQAIL (Escherichia coli, UniProt P23836)	Sort-seq, refers to: YFP reporter	E. coli	PhoQ-PhoP variant library, with: 10 µM Mg2+	baseline: high Mg2+ state, higher = stronger signaling	fold induction	19.9

Excerpt of the above (study 2):
target	remaining activity [%]
MAPK14 (Homo sapiens, UniProt Q16539)	91
RPS6KA4 (Homo sapiens, UniProt O75676)	98.7
ROCK1 (Homo sapiens, UniProt Q13464)	97.9
PNCK (Homo sapiens, UniProt Q6P2M8)	99.7
PLK3 (Homo sapiens, UniProt Q9H4B4)	99.3
MARK2 (Homo sapiens, UniProt Q7KZI7)	103
